# Results pooled from the literature.
# Each line is one published result; not all experiments were run side by side. ± marks the error that the study gave.
# CYP1A2: Cytochrome P450 1A2 (CYP1A2, Homo sapiens, UniProt P05177)
# SLC47A1: Multidrug and toxin extrusion protein 1 (SLC47A1, Homo sapiens, UniProt Q96FL8)
# Sequence of UniProt Q96FL8 (whole entry, looked up): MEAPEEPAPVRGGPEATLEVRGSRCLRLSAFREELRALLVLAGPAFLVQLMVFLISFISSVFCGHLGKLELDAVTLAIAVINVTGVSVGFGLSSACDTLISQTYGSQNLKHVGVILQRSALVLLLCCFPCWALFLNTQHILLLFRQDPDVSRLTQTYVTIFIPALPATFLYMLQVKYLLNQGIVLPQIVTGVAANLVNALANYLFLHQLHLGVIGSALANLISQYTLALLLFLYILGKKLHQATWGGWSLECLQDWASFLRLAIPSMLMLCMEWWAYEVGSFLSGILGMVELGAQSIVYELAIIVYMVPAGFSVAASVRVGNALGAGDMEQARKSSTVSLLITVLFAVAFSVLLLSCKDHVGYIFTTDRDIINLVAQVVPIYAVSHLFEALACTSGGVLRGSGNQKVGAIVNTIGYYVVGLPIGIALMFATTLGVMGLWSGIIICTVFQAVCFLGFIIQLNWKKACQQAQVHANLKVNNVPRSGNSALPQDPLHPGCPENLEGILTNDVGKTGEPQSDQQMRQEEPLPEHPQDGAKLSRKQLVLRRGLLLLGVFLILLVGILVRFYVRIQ
# CYP2E1: Cytochrome P450 2E1 (CYP2E1, Homo sapiens, UniProt P05181)
# Sequence of UniProt P05181 (whole entry, looked up): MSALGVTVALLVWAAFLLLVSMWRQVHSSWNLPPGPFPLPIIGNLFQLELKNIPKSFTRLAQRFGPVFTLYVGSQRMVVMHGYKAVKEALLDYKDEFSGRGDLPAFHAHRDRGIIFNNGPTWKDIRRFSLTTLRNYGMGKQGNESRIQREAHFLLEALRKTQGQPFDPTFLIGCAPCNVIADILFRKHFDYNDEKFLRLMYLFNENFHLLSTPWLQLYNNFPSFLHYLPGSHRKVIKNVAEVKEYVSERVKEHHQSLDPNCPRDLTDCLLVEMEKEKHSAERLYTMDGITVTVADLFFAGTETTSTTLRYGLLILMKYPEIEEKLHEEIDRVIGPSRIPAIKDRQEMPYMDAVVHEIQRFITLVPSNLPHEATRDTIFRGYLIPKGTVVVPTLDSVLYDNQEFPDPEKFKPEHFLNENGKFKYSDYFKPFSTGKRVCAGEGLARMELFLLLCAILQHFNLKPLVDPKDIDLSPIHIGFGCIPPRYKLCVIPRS
# SCN5A: Sodium channel protein type 5 subunit alpha (SCN5A, Homo sapiens, UniProt Q14524)
# 7-alpha-hydroxycholest-4-en-3-one 12-alpha-hydroxylase: 7-alpha-hydroxycholest-4-en-3-one 12-alpha-hydroxylase (Homo sapiens, UniProt Q9UNU6)
# Sequence of UniProt Q9UNU6 (whole entry, looked up): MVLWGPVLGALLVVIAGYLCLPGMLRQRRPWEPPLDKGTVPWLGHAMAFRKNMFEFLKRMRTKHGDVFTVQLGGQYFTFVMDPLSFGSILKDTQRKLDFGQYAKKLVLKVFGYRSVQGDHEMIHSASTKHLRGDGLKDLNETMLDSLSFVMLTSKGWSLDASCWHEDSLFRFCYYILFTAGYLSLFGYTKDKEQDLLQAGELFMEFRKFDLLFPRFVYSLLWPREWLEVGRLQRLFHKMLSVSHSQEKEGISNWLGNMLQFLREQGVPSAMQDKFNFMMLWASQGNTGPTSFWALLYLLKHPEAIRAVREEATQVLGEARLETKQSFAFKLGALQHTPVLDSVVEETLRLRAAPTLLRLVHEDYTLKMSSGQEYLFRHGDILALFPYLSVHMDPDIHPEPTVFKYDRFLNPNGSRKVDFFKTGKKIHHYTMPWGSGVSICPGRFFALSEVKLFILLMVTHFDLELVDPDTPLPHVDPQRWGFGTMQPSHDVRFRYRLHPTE
# Sequence of UniProt P06873 (whole entry, looked up): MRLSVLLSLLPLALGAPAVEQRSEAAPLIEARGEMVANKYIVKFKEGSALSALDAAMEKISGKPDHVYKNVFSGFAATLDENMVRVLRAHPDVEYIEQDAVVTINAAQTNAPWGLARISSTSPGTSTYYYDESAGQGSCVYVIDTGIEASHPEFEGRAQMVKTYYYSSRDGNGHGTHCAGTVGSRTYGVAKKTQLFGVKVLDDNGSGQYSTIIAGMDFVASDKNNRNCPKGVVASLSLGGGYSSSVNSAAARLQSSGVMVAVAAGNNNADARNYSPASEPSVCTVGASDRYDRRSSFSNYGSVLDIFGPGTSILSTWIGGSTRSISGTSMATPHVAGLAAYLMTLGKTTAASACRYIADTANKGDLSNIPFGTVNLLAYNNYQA
# Sequence of UniProt P16591 (whole entry, looked up): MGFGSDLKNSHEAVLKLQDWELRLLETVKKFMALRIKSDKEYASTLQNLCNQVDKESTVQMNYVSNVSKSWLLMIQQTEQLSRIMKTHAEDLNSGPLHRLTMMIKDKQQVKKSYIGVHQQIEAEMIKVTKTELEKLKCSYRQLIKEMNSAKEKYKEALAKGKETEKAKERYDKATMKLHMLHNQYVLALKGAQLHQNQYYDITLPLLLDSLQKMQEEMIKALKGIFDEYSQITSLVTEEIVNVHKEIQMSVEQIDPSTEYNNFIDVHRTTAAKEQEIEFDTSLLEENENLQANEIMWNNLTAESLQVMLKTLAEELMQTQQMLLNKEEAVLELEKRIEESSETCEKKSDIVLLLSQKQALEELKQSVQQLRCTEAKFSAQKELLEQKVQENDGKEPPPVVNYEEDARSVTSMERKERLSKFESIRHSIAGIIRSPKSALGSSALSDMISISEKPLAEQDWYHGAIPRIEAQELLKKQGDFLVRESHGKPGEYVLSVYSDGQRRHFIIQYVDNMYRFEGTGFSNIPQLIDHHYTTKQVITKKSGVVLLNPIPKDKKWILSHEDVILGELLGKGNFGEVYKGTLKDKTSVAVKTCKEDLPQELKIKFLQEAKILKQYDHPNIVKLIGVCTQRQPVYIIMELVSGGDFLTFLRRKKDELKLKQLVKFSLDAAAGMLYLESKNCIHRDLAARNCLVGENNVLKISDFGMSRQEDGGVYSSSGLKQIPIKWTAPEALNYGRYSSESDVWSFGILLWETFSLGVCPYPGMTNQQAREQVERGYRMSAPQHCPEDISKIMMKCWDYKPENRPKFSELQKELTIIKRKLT
# Sequence of UniProt P24723 (whole entry, looked up): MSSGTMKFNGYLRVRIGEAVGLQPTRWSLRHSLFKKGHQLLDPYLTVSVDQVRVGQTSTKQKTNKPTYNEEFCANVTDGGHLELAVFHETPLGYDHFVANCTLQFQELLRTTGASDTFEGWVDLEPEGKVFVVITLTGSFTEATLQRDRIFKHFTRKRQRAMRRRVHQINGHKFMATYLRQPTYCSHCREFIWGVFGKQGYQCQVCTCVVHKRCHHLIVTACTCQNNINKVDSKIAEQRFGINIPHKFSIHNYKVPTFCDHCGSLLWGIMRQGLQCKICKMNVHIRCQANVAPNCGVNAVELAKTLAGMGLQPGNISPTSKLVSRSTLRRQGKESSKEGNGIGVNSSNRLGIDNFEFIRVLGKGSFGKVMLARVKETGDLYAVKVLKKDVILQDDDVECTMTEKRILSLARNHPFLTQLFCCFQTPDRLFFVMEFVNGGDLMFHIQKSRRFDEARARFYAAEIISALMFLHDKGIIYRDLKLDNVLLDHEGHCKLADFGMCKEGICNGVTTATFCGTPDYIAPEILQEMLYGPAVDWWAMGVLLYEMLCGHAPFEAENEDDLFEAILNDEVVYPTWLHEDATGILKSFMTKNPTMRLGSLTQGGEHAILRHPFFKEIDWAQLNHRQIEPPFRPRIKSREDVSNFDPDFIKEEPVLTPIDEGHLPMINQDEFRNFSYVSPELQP
Structure (SMILES),tested on,assay,test system,conditions,how to read,endpoint,result
CCN(CC)CCOc1ccc(-c2nnn(Cc3ccc(OC)cc3)c2N)cc1,CYP1A2,inhibitor,,,,IC50,> 50 µM
O=C1NC2(CC2)COc2ncc(F)cc2[C@H]2COCCN2c2ccn3ncc1c3n2,,,"Sprague-Dawley rat, female, ovaries","oral, 20 mg/kg/day, 4 weeks dosing, end of recovery",,organ-to-brain weight ratio,5.4 ± 0.14%
CNC(=O)C1OC(n2cnc3c(NCc4cccc(I)c4)ncnc32)C(O)C1O (stereo not shown),SLC47A1,"transport, inhibitor",transiently transfected cells,"100 µM, 10 (unit not given), with: metformin",,inhibition,85%
Oc1c(Br)cccc1Br,CYP2E1,"p-nitrophenol hydroxylation, inhibitor",,with additive 100 µM,,IC50,35 µM
CS(C)(=O)=Nc1ccc(-c2ccc(-c3nc4cc(O[C@@H]5CO[C@H]6[C@@H]5OC[C@H]6O)[nH]c4cc3F)cc2)cc1,"Protein kinase C eta type (PRKCH, Homo sapiens, UniProt P24723)","enzyme activity, inhibitor",,10 µM,,inhibition,6%
CNC(=O)C1CCCN(C(=O)C2CC3CCC2N3C(=O)[C@@H]2C[C@@H](O)CN2C(=O)NCc2cccc(Cl)c2F)C1 (mixture of isomers),CYP3A4 (human),"inhibitor, time-dependent inhibition",,"0.0686 µM, preincubated with NADPH, with: midazolam substrate",baseline: negative control,remaining activity,103%
C[C@@]12CC[C@@H]3[C@H](CC[C@@H]4C[C@@H](O)CC[C@]43C)[C@H]1CC(=O)C2,SCN5A,"ion current, blocker",,,,IC50,17.2 µM
COc1ccccc1-c1n[nH]c2nc(N[C@H]3CC[C@H](NS(=O)(=O)CC(C)C)CC3)ncc12,,"bead binding, competition bead pull-down, refers to: LINJ.20.0110",Leishmania donovani extract,10 µM,baseline: vehicle,relative abundance,0.99
CSc1nc2[nH]nc([N+](=O)[O-])c(=O)n2n1,SLC47A1,"transport, inhibitor",transiently transfected cells,"100 µM, 10 (unit not given), with: metformin",,inhibition,7.7%
C[C@@H](c1ccc2nccn2c1)n1nnc2nc(O)c(-c3cnn(C)c3)nc21,CYP1A2,"enzyme activity, inhibitor","human, liver microsomes",,,IC50,> 50 µM
CC(C)NCCCn1c(Sc2cc3c(cc2I)OCO3)nc2c(N)ncnc21,epichaperome,PU-PET,"human, left lymph node lesion","140 mg/m^2, 24 h post-injection",,tumour concentration,2.3 µM
CC(=O)N[C@@H](CC(C)C)C(=O)N[C@H](C(=O)N[C@@H](Cc1ccccc1)C(=O)N[C@@]1(C)CSCCCCCCCCSC[C@@](C)(C(=O)N[C@@H](CO)C(N)=O)NC(=O)[C@H](CC(C)C)NC(=O)[C@H](CCC(N)=O)NC(=O)[C@H](C)NC(=O)[C@H](Cc2c[nH]c3ccccc23)NC(=O)[C@H](Cc2ccc(O)cc2)NC(=O)[C@H](CCC(=O)O)NC1=O)[C@@H](C)O,"Proteinase K (PROK, Engyodontium album, UniProt P06873)",proteolytic stability,,120 min,,remaining intact peptide,100%
C[C@@H](c1ccc2nccn2c1)n1nnc2ncc(-c3cn[nH]c3)nc21,CYP1A2,,human liver microsomes,"10 and 50 µM, 30 min preincubation, with: ± NADPH",,time-dependent inhibition,< 20%
Cc1cc(Br)c(O)c(Br)c1,CYP2E1,"p-nitrophenol hydroxylation, inhibitor",,with additive 100 µM,,Ki,2.1 µM
CC[C@H](C)[C@H](NC(=O)[C@H](CCCCN)NC(=O)CNC(=O)[C@H](CC(C)C)NC(=O)[C@H](Cc1ccccc1)NC(=O)[C@H](CCCCN)NC(=O)[C@H](CO)NC(=O)[C@H](Cc1ccccc1)NC(=O)[C@H](Cc1c[nH]c2ccccc12)NC(=O)[C@H](CCC(N)=O)NC(=O)[C@@H](NC(=O)[C@H](Cc1ccccc1)NC(=O)CCCCCNC(=O)CN1CCN(CC(=O)O)CCN(CC(=O)O)CCN(CC(=O)O)CC1)C(C)C)C(=O)N[C@@H](CCC(=O)O)C(=O)N1CCC[C@H]1C(=O)N[C@@H](CC(=O)O)C(=O)N[C@H](C(=O)N[C@@H](CO)C(=O)N[C@@H](CCC(N)=O)C(=O)N[C@H](C(=O)N[C@@H](CCC(N)=O)C(=O)N[C@@H](CC(=O)O)C(=O)N1CCC[C@H]1C(=O)N[C@@H](CC(N)=O)C(=O)N[C@@H](CC(=O)O)C(=O)N[C@@H](CCC(N)=O)C(=O)N[C@@H](Cc1ccc(O)cc1)C(=O)N[C@@H](CCC(=O)O)C(=O)N1CCC[C@H]1C(=O)N[C@@H](Cc1ccccc1)C(=O)O)C(C)C)C(C)C [copper-64 labelled],,,"C57BL/6 mice, male, tumour-free, stomach",2 h,,tissue uptake,4.28 ± 0.4 %ID/g
CC(C)(C)C(=O)OCOP(=O)(OCOC(=O)C(C)(C)C)C1CCCN(O)C1=O (stereo not shown),NCI-H226,,,,,GI50,0.996 µM
C[C@]12C(c3cccnc3)=C[C@H]3[C@@H](CCC4=C[C@H](O)CC[C@@]43C)[C@@H]1CC[C@@H]2O,7-alpha-hydroxycholest-4-en-3-one 12-alpha-hydroxylase,"12α-hydroxylation of 7α-hydroxycholest-4-en-3-one, inhibitor",,"80 µM, wild type",,inhibition,34%
CN(C)[C@H]1C[C@@]23CC[C@@]4(O2)C(=CC[C@]2(C)[C@@H](c5ccc6ccncc6c5)CC[C@H]24)C=C3[C@@H](O)[C@@H]1O,"Tyrosine-protein kinase SYK (SYK, Homo sapiens, UniProt P43405)","ATP probe labelling, inhibitor, KiNativ profiling",,0.1 µM,,inhibition,8.3%
Cc1cc(Nc2nc(C[C@@]3(C(=O)O)CCN(Cc4cccc(Cl)c4F)[C@H](C)C3)cc(C)c2F)n[nH]1,SCN5A,,,"10 µM, safety pharmacology panel",,inhibition,-2.15%
O=C1NC(=O)c2c1c1cc(F)c[n+]3c1c1c2c2cc(O)ccc2[n]1[Ru-4]312([N]=C=S)[S+]3CC[S+]1CC[S+]2CC3 (stereo not shown),"Tyrosine-protein kinase Fer (FER, Homo sapiens, UniProt P16591)",enzyme activity,,"100 nM, human enzyme, with: 10 µM ATP",baseline: untreated,remaining activity,56%
Cc1cc(-c2ccc3ccccc3c2)nnc1NCCN1CCN(C)CC1,SLC47A1,"transporter uptake, inhibitor",,10 µM,,inhibition,89%
C/C(=N\OCCCN1CCCCC1)c1ccc(C(F)(F)F)cc1,SCN5A,"ion current, antagonist, automated patch clamp",,10 µM,,inhibition,5.65%
CC[C@H](C)[C@H](NC(=O)[C@H](CO)NC(=O)[C@H](Cc1ccc(O)cc1)NC(=O)[C@H](Cc1ccc(O)cc1)NC(=O)[C@H](CC(N)=O)NC(=O)CNC(=O)[C@H](CO)NC(=O)[C@H](Cc1ccc(O)cc1)NC(=O)[C@H](CO)NC(=O)[C@H](CO)NC(=O)[C@H](CC(N)=O)NC(=O)COCCOCCNC(=O)CN1CCN(CC(=O)O)CCN(CC(=O)O)CCN(CC(=O)O)CC1)C(=O)N[C@@H](CC(C)C)C(N)=O [copper-64 labelled],,dynamic PET,"tamoxifen-induced PDAC mouse model, pancreas","4.5 min, CLDN4-expressing tumours",,maximum pancreas uptake,20.4 %IA/cc
CC12CCC(=O)C=C1CCC1C2C=C(c2cccnc2)C2(C)C(=O)CCC12 (stereo not shown),7-alpha-hydroxycholest-4-en-3-one 12-alpha-hydroxylase,inhibitor,,"80 µM, with: 7α-hydroxycholest-4-en-3-one",,inhibition,no effect
CC(=O)NCCCC[C@@H]1NC(=O)[C@H](Cc2c[nH]c3c(C)cccc23)NC(=O)[C@H]([C@@H](C)O)NC(=O)[C@H](CC(N)=O)NC(=O)[C@@H](NC(C)=O)C(C)(C)SSC(C)(C)[C@@H](C(=O)N[C@@H](Cc2ccc(OCCN)cc2)C(=O)N[C@@H](Cc2ccc3ccccc3c2)C(=O)NC2(C(=O)N[C@@H](CCC(=O)O)C(=O)N[C@@H](CC(N)=O)C(=O)N[C@@H](Cc3cccnc3)C(=O)N(C)CC(N)=O)CCOCC2)NC1=O,human alpha-1-acid glycoprotein 0.07%,equilibrium dialysis,,1 µM,,protein binding,1.07 ± 0.54%
COC(=O)[C@@H](NC(=O)c1nn(Cc2ccc(F)cc2)c2cc(OCCCCNC(=N)N)ccc12)C(C)(C)C,central CB1 receptor,,mouse,intraperitoneal,,dose producing catalepsy,30 mg/kg
COc1ccccc1-c1n[nH]c2nc(NC3CCN(C(=O)Cc4ccc(F)cc4F)CC3)ncc12,,"bead binding, competition bead pull-down, refers to: LINJ.21.0300",Leishmania donovani axenic amastigote extract,10 µM,baseline: vehicle,relative abundance,1.31
CC12CCC3C4CCC(C#N)CC4CCC3C1CCC2O (stereo not shown),SCN5A,"ion current, blocker",,,,IC50,26 µM

# A few entries again:
Structure (SMILES),tested on,assay,test system,conditions,how to read,endpoint,result
CCN(CC)CCOc1ccc(-c2nnn(Cc3ccc(OC)cc3)c2N)cc1,CYP1A2,inhibitor,,,,IC50,> 50 µM
O=C1NC2(CC2)COc2ncc(F)cc2[C@H]2COCCN2c2ccn3ncc1c3n2,,,"Sprague-Dawley rat, female, ovaries","oral, 20 mg/kg/day, 4 weeks dosing, end of recovery",,organ-to-brain weight ratio,5.4 ± 0.14%
CNC(=O)C1OC(n2cnc3c(NCc4cccc(I)c4)ncnc32)C(O)C1O (stereo not shown),SLC47A1,"transport, inhibitor",transiently transfected cells,"100 µM, 10 (unit not given), with: metformin",,inhibition,85%
Oc1c(Br)cccc1Br,CYP2E1,"p-nitrophenol hydroxylation, inhibitor",,with additive 100 µM,,IC50,35 µM
